Assay results pooled from the literature.
Each numbered part is a random draw from the data of one study; scales do not carry over between parts. Substitutions count along the parent as printed.

Series 1
Target: tungstate, free oxyanion
Method: microfluidic competitive inhibition
Sample: in vitro, cell-free expressed
Tested at: not given
Setting: derived from inhibition constants, unchanged parent 2230 nM
Reading: lower = stronger binding
Starting sequence: PafA, mature enzyme, eGFP fusion (Elizabethkingia meningoseptica, UniProt Q9KJX5); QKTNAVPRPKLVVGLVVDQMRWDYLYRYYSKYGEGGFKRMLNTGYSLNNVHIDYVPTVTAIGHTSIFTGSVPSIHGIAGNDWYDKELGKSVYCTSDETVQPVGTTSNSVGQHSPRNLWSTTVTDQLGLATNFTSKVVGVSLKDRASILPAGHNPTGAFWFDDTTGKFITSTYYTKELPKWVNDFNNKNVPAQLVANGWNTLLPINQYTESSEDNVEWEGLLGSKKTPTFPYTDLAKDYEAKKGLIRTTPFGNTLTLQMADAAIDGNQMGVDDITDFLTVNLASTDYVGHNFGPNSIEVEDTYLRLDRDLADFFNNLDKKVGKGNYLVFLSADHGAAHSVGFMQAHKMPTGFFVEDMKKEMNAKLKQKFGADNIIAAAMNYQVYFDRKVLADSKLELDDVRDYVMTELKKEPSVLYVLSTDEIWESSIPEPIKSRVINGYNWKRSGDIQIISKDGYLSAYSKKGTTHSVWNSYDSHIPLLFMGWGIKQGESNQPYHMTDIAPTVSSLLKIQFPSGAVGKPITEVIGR
For `V71G`, “oxyanion analog dissociation constant” read 807 nM.
Under “oxyanion analog dissociation constant”, `G292A` is recorded as 2.26 µM.
Under “oxyanion analog dissociation constant”, `T253G` is recorded as 1.96 µM.

Series 2
Target: Histone acetyltransferase KAT6A, both winged helices, GST fusion (KAT6A, Homo sapiens, UniProt Q92794, residues 1-181)
Method: protein binding microarray
Molecule type: double-stranded DNA, one strand shown
Sample: in vitro
Tested at: not given
Setting: 8-mer, flanks averaged, mean of 2 arrays, mostly near background
Relative to: not given
Reading: higher = stronger binding
Residues (chain): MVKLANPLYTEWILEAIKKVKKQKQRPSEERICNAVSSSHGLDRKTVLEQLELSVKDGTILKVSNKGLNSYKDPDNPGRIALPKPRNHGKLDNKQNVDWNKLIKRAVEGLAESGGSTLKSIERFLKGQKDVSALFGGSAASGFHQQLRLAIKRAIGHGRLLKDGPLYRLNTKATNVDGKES
For `CGTGGCGA`, the E-score was 0.11.
`CACGCGAC` has an E-score of 0.146.
The E-score of `CCCAACTA` is reported as -0.273.
`GGATCGAA` gave an E-score of 0.135.
`AGGTGCGA` has an E-score of -0.0126.
`CTTTCACC` has an E-score of 0.0266.
`CACGGGTA` has an E-score of 0.182.
`GAAAAAGC` has an E-score of 0.175.

Series 3
Target: CCND2, cyclin fold, Cln2 fusion (human)
Method: yeast growth competition, sequencing
Sample: yeast
Setting: weak parent motif
Relative to: not given
Reading: higher = stronger binding
Starting sequence: viral docking peptide; TSVRRALFTGGSD; partner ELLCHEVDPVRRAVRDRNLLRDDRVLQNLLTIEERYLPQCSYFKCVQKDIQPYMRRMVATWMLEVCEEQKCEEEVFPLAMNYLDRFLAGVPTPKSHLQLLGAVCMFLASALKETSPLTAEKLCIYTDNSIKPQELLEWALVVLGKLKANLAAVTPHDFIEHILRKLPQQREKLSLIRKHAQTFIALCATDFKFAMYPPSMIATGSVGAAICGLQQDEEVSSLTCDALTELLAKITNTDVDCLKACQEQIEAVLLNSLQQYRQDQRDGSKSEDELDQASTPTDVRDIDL
For `TSVRKALLTGGSD [R5K F8L]`, “normalised enrichment score” read 0.193.
`TSVRRAAFTGGSD [L7A]`: “normalised enrichment score” 0.309.
For `TSVRRALFTGGED [S12E]`, “normalised enrichment score” read -0.0393.
For `TSVRAALFTGGSD [R5A]`, “normalised enrichment score” read 0.118.
`TWVRRALFTGGSD [S2W]` — result for “normalised enrichment score”: -0.478.
For `TSVRRILFTGGSD [A6I]`, “normalised enrichment score” read 0.335.
Under “normalised enrichment score”, `TSVRRALFTQGSD [G10Q]` is recorded as -0.158.
`TSVRRALFPGGSD [T9P]`: “normalised enrichment score” 0.0527.
Under “normalised enrichment score”, `TSVRRMLFTGGSD [A6M]` is recorded as -0.344.
Under “normalised enrichment score”, `TSVRRALFTGGGD [S12G]` is recorded as -0.251.
`TSVRRALFTGGSA [D13A]` — result for “normalised enrichment score”: 0.309.
`TSVFRALFTGGSD [R4F]`: “normalised enrichment score” -0.404.
For `TSVRRALPTGGSD [F8P]`, “normalised enrichment score” read 0.0708.
`TSVRRVLFTGGSD [A6V]` — result for “normalised enrichment score”: 0.132.

Series 4
Target: RNA binding protein fox-1 homolog 2, RRM domain, GST-SBP tag (RBFOX2, Homo sapiens, UniProt O43251-10, residues 100-194)
Method: RNA Bind-n-Seq
Molecule type: RNA
Sample: in vitro
Tested at: 365 nM
Setting: natural RNA segment, single round, ends assumed
Relative to: no-protein control
Reading: higher = stronger binding
All sequences stand within: GGGAGUUCUACAGUCCGACGAUC … UGGAAUUCUCGGGUGCCAA
Residues (chain): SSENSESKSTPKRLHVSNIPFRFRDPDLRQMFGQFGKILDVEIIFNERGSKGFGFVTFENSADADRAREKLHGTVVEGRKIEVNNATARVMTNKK
`GGCCCCUGCCCUUCUCUUUCUCCCAGAUGGAUCCUUCCAGCAGAGAAAUAAAGCCUUAUCCAUUACACGCACUGGUUUUAAGGUGGUUUGUGUCUUGGCUGAGGCAGGGG`: “RBNS enrichment (R)” 0.211.
Under “RBNS enrichment (R)”, `AGAGCGUGUGCAUAGGUGGUCUCUGACCUGAACAUCACAGUGCGGAGAAAGCCCGGCUGGAAACACCCUCGCCCCCAGCCUACGGGUCCCCGAAAUGGGGUCCUCUCACC` is recorded as 0.165.
`UCUUCAUGGUCUGCUGUGCACAAACUAUAUCCGAGAGAUCCUGUCUCCCCAAAAGCCACUGCUGGGAUGCUGGCCUCUGAUUUUUGAGCCAGCGUUGUCUCACUCUGAUC`: “RBNS enrichment (R)” 0.31.
For `GCAUUAUUCACUAGAUGCAAAGGGAGCCAGCAAGAUGGCUCAGUGAGUCUGGGUGCUUGUCACCUAGCCUGACAUUCUGAGUUCAAUCCCUGGGACCCGCCUGAUAGGAG`, “RBNS enrichment (R)” read 0.304.
For `UGUGUGUGAUGAGUUGAGGGCUUUCCCACCUGCACGGGCCUUCACGGGCUCCACGCUUUUGCUGUCCUUGACACCUCUCGUUGGGGCUUCUGCAGGCAUCUCUGUCUGAG`, “RBNS enrichment (R)” read 0.7.
For `GGCCAUUCUCUGAUGCAGGGCACUUGCUCCACACUCUGGGAACCCAGAUUCACCAGUCUGCCCUGUCACGUAGUUGAAGGAGUUGCAUUUAUCUUUCUGGCUCCUAAUUC`, “RBNS enrichment (R)” read 2.42.
Under “RBNS enrichment (R)”, `UUCAGUAUUAUGUUCAAAAGACAUUUUUAUCCUGAUCAUAAUUAAUUUGAAAACUCUUUAAGUUCAUGUUAUACAAGAUGAUUUACUGUAUUAUACUUUUCCUUUUUUAU` is recorded as 0.793.
`UACUAGCUCAGUGCUCAAUCUCCAGGUACUAUAUAUACAUUUGCCCGUUUUAUCUCUAAUGUGAAAUAAAUCCCCAAACACUUGUUUAUCGUGUAGCGUACCUAAAAGAC` — result for “RBNS enrichment (R)”: 0.308.

A few entries again (series 3):
For `TSVRRALFTGGED [S12E]`, “normalised enrichment score” read -0.0393.
For `TSVRAALFTGGSD [R5A]`, “normalised enrichment score” read 0.118.
`TWVRRALFTGGSD [S2W]` — result for “normalised enrichment score”: -0.478.
For `TSVRRILFTGGSD [A6I]`, “normalised enrichment score” read 0.335.
Under “normalised enrichment score”, `TSVRRALFTQGSD [G10Q]` is recorded as -0.158.
